Measurements collected from several papers.
Lines come from different studies, so protocols differ. Numbers after ± are the reported error.

`C[C@@H](NC(=O)N1C(=O)[C@H](Cc2ccnc(N)c2)[C@H]1C(=O)O)C1CCCCC1`: “incidence of elevated creatine phosphokinase” 12.5% (healthy adult Chinese volunteers; continuous intravenous infusion, 0.3 mg/kg/h, 5-day infusion, CTCAE 5.0 grading).
`O[C@H]1CCCN[C@@H]1CCCn1cnc2c(Cl)c(Cl)ccc21`: “median Tmax at steady state” 5 h (healthy humans, plasma; oral, 150 mg, together with: pirfenidone 600 mg).
`C[C@H]1CN(C(=O)CC#N)[C@]12CCN(c1ncnc3[nH]ccc13)C2` — result for “Cmax at NOAEL”: 1800 ng/mL (rat female; oral, 10 mg/kg repeated daily, 6 months, repeated-dose toxicity study).
`CC(C)C(=O)OC[C@H]1O[C@@H](n2ccc(NO)nc2=O)[C@H](O)[C@@H]1O` gave a freeze-thaw stability of 97.78 ± 0.47% (rat maternal blood dialysate; 250 ng/mL, high concentration, three cycles, together with: NHC 1000 ng/mL).
With `CC[C@H](C)[C@H](NC(=O)[C@H](C)NC(=O)[C@H](CCCCN)NC(=O)[C@H](CC(C)C)NC(=O)[C@H](C)NC(=O)[C@@H](NC(=O)[C@H](Cc1c[nH]cn1)NC(=O)[C@H](CC(C)C)NC(=O)[C@@H](NC(=O)[C@@H](NC(=O)[C@H](CCCCN)NC(=O)[C@H](C)NC(=O)[C@H](C)NC(=O)[C@H](CO)NC(=O)[C@H](CCCCN)NC(=O)[C@H](Cc1ccccc1)NC(=O)[C@@H](NC(=O)[C@H](CCCCN)NC(=O)[C@H](CC(C)C)NC(=O)[C@H](Cc1ccccc1)NC(=O)[C@H](CO)NC(=O)[C@H](CCCCN)NC(=O)[C@H](Cc1c[nH]c2ccccc12)NC(=O)[C@H](CCCCN)NC(C)=O)[C@@H](C)O)[C@@H](C)O)C(C)C)[C@@H](C)O)C(=O)N[C@@H](CO)C(=O)N[C@@H](CO)C(N)=O` the C0 was 14400 ± 5850 ng/mL (minipigs, both sexes, blood; intravenous, 20 mg per animal).
Under “dose fraction in skim milk”, `O=C(O)CNCP(=O)(O)O` is recorded as 99.1% (whole cow milk; 20 nM nominal).
The Epistaxis incidence of `COc1cc2c(Oc3ccc4[nH]c(C)cc4c3F)ccnc2cc1OCC1(N)CC1` is reported as 0% (paediatric recurrent refractory sarcoma; 8 mg).
`COc1ccc(-c2c(-c3ccc(C#N)c(F)c3)nc(N3CCC(N)CC3)n(C)c2=O)cc1F` — result for “treatment-related adverse event incidence”: 0% (refers to: Constipation; relapsed/refractory marginal zone lymphoma patients; oral, 60 mg, grade 3 to 4, dose expansion).
`NC1(C(=O)N[C@@H](CCO)c2ccc(Cl)cc2)CCN(c2nc[nH]c3nccc2-3)CC1` — result for “incidence of Vomiting”: 42.9% (metastatic CRPC patients; 400 mg b.i.d., any grade, treatment-related, together with: enzalutamide 160 mg daily).
For `C[C@]1(O)C[C@@](N)(c2ccc(-c3nc4n(c3-c3ccccc3)COc3ccncc3-4)cc2)C1`, “patients with Fatigue TEAE” read 41.2% (human, advanced or metastatic solid tumours; dose not given, all patients, any grade).
For `COc1ncnn2ccc(-c3cnc4nc(C)n(Cc5nnc([C@@H](C)F)o5)c4c3)c12`, “incidence of grade ≥3 tumour lysis syndrome” read 14.3% (human patients; oral, dose not given).
With `CCOC(=O)C1=C(CN2CCOCC2)NC(c2nccs2)=NC1c1ccc(F)cc1Br` (stereo not shown) the steady-state Cmin was 22.9 ng/mL (healthy human, plasma; 340 mg three times daily, without ritonavir).
For `CC(=O)c1c(C)c2cnc(Nc3ccc(C4CCN(CCS(C)(=O)=O)CC4)cn3)nc2n(C2CCCC2)c1=O`, “cardiovascular, respiratory, temperature” read “no effect” (conscious beagle dog; oral, 3, 6, 15 mg/kg).

Some of these lines once more:
`C[C@@H](NC(=O)N1C(=O)[C@H](Cc2ccnc(N)c2)[C@H]1C(=O)O)C1CCCCC1`: “incidence of elevated creatine phosphokinase” 12.5% (healthy adult Chinese volunteers; continuous intravenous infusion, 0.3 mg/kg/h, 5-day infusion, CTCAE 5.0 grading).
